Published values from different studies.
Every numbered part comes from another study and shows a few of its results, in no order. Values joined by “and” are separate records of one study, mostly repeats; a detail may differ. pIC50: −log10 of the molar value.
Sequence of UniProt Q08345 (whole entry, looked up): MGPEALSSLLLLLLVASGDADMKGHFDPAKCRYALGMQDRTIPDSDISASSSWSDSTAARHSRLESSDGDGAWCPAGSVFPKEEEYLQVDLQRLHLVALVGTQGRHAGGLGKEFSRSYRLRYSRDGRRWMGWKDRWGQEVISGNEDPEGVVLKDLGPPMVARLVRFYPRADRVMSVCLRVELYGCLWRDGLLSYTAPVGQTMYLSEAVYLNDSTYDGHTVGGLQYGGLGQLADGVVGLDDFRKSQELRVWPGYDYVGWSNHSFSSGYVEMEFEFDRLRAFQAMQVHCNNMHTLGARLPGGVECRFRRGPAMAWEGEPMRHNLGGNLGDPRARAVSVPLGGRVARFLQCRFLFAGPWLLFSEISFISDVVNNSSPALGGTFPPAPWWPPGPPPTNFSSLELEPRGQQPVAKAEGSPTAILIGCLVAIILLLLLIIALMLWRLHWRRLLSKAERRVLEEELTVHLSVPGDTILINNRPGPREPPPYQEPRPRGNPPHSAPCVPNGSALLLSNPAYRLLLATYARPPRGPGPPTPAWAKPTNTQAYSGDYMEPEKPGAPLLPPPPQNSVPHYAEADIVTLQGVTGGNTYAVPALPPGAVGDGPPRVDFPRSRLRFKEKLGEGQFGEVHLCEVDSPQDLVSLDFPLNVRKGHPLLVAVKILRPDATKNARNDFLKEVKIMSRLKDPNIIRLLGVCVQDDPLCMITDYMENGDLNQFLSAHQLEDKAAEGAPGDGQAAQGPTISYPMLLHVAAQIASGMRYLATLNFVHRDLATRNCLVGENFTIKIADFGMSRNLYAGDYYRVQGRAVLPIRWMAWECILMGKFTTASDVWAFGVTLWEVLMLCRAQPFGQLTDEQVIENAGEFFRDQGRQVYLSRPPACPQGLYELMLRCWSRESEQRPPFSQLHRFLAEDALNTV
Sequence of UniProt Q96SW2 (whole entry, looked up): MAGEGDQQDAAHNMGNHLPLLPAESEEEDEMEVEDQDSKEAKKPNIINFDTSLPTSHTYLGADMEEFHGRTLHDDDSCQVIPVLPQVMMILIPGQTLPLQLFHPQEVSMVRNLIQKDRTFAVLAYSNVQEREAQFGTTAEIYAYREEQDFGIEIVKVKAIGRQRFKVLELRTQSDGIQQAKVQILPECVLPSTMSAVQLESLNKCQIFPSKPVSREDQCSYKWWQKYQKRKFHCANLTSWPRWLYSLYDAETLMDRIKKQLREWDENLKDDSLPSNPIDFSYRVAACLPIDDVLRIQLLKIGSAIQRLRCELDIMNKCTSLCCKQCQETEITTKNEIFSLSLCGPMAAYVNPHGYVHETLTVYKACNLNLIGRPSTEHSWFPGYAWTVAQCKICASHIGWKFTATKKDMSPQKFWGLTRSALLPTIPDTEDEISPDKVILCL
Sequence of UniProt P35916 (whole entry, looked up): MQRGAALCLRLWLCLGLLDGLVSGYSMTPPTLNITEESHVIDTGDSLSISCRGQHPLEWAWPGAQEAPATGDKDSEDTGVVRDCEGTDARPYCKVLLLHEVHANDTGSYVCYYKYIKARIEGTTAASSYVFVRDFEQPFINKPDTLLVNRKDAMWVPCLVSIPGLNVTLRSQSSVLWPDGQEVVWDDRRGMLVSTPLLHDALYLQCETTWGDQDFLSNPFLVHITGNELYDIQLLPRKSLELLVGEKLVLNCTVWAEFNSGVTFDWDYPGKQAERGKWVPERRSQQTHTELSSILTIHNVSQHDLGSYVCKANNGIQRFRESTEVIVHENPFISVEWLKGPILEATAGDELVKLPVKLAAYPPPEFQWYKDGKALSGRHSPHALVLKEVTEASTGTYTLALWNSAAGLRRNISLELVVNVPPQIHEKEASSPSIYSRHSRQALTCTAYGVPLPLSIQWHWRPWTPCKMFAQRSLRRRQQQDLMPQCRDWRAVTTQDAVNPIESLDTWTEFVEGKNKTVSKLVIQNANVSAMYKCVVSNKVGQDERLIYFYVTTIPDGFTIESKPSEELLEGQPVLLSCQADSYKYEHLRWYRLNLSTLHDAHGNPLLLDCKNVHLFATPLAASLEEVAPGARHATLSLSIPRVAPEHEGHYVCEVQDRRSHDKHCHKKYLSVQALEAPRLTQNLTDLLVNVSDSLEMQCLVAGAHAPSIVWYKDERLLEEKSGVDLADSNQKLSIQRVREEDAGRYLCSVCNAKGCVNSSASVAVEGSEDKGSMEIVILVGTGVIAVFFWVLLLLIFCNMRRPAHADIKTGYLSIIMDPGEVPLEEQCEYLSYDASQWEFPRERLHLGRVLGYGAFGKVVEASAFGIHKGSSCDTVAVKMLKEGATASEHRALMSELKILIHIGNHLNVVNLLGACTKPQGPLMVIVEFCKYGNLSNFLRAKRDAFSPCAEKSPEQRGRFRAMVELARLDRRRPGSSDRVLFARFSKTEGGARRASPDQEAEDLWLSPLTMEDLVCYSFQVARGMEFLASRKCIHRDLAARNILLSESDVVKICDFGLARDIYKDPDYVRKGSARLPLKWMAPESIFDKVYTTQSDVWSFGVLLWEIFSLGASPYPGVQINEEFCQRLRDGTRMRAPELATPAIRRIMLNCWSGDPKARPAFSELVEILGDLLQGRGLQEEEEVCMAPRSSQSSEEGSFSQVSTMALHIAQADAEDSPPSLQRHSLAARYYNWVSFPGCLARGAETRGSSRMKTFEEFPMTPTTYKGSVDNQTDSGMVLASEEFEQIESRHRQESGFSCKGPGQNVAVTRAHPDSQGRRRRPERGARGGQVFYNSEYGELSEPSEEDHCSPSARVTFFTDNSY
Sequence of UniProt Q99640 (whole entry, looked up): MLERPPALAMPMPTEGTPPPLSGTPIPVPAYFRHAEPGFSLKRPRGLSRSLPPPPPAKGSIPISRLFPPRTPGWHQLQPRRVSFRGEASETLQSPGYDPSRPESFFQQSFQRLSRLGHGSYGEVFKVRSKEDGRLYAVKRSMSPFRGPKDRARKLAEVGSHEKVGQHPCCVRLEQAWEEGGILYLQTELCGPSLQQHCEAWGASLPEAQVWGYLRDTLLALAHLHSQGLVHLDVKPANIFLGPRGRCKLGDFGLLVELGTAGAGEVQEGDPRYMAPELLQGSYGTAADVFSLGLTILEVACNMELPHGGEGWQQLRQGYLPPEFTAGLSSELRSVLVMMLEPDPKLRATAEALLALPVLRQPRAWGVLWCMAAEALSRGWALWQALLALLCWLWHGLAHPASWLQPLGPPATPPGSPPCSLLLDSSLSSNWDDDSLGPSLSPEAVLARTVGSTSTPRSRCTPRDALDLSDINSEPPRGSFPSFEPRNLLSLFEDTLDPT

Series 1
Structure (SMILES): C[C@@H]1CN(c2ccc(-c3cc(C(=O)NCCOCCOCCOCCOCCOCCOCCNC(=O)/C=C/c4[nH]cc(C(=O)N[C@@H](CC(N)=O)c5ccc(F)c(Cl)c5)c4-c4ccc(Cl)cc4F)ccc3F)cc2NC(=O)c2ccc(F)cc2C(F)(F)F)C[C@H](C)N1C
Observed: thermal unfolding
Method: differential scanning fluorimetry
Concentration: 5.5 µM
Reading: higher = more unfolded
DCAF1: DDB1- and CUL4-associated factor 1 (DCAF1, Homo sapiens, UniProt Q9Y4B6)
Sequence of UniProt Q9Y4B6 (whole entry, looked up): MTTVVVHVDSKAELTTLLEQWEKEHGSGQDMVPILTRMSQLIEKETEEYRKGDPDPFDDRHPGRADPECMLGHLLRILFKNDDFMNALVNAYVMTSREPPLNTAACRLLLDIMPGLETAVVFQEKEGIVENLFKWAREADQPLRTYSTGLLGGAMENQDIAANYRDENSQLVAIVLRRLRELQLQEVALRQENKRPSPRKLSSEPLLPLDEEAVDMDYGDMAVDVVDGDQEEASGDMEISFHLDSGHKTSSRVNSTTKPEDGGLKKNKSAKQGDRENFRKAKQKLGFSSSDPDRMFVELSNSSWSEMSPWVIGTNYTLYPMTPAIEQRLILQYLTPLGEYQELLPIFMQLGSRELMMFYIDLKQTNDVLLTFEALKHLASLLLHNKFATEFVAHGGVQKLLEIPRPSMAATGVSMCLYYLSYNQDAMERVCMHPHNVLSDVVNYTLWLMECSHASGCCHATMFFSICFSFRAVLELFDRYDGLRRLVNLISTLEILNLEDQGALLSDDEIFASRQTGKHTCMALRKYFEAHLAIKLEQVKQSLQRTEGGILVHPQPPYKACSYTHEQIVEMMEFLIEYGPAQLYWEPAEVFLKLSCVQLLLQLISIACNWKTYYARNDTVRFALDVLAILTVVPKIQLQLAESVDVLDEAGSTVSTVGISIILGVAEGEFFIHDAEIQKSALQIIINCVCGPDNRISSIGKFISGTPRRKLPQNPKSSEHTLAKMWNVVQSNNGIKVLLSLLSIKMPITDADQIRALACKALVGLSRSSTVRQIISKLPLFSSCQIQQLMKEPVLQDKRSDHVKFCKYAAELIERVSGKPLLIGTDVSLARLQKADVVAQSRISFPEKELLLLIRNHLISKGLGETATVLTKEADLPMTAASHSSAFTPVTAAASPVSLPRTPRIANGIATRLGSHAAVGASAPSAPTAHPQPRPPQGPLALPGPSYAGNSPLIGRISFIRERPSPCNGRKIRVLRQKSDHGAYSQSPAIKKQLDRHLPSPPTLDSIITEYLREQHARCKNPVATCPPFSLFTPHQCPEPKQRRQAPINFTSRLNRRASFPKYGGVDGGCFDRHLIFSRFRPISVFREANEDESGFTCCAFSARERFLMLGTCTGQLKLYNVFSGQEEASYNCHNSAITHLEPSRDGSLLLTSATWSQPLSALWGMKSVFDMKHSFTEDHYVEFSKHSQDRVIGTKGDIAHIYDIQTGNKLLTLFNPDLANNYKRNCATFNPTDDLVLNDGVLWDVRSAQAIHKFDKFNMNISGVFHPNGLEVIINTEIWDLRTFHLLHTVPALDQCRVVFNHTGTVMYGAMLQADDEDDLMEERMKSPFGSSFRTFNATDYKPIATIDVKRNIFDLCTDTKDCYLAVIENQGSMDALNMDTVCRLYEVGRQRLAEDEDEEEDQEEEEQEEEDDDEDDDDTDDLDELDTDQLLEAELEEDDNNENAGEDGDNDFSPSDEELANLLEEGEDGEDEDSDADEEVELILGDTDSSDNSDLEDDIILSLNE
WDR5: WD repeat-containing protein 5 (WDR5, Homo sapiens, UniProt P61964)
target | conditions | SYPRO Orange fluorescence
DCAF1 | 77.41 °C | 41700 a.u.
WDR5 | 49 °C | 15900 a.u.
DCAF1 | 64.41 °C | 53900 a.u.
WDR5 | 54.01 °C | 16900 a.u.
DCAF1 | 60.61 °C | 49200 a.u.
WDR5 | 64.01 °C | 15600 a.u.
DCAF1 | 53.01 °C | 22300 a.u.
DCAF1 | 59.21 °C | 44000 a.u.
DCAF1 | 33.8 °C | 9480 a.u.
DCAF1 | 62.01 °C | 52700 a.u.
WDR5 | 40.4 °C | 14200 a.u.

Series 2
SMILES: Cc1ccc2c(c1)OC(O)(C(=O)O)C(=O)N2Cc1ccccc1 (stereo not drawn)
organism | test | system | conditions | how to read | inhibition
Arabidopsis thaliana | root length | Col-0, seedlings | 50 µg/mL | relative to: water control | 29.4%
Glycine max | fresh weight |  | soil surface spray, 150 g ai/ha, 21 days, pre-emergence crop safety |  | 19.4% and 21.3% and 19.9%
Arabidopsis thaliana | root length | Col-0, seedlings | 6.25 µg/mL | relative to: water control | 12.4%
Avena fatua | fresh weight |  | 150 g ai/ha, pre-emergence treatment |  | 40.9% and 41.2% and 38.8%
Arabidopsis thaliana | hypocotyl length | Col-0 | 25.0 µg/mL, 7 days, seed germination, dark |  | 12.9%
Arabidopsis thaliana | root length | Col-0, seedlings | 25 µg/mL | relative to: water control | 16.8%
Arabidopsis thaliana | hypocotyl length | Col-0 | 12.5 µg/mL, 7 days, seed germination, dark |  | 2.9%
Arabidopsis thaliana | hypocotyl length | Col-0, seedlings | 12.5 µg/mL |  | 2.87%
Arabidopsis thaliana | root length | Col-0, seedlings | 50 µg/mL |  | 29.4%
Amaranthus retroflexus | fresh weight |  | 150 g ai/ha, post-emergence treatment |  | 52.1% and 50.9% and 51.7%
Arabidopsis thaliana | hypocotyl length | Col-0 | 100 µg/mL, 7 days, seed germination, dark |  | 47.9%
Arabidopsis thaliana | hypocotyl length | Col-0, seedlings | 100 µg/mL |  | 47.9%
Arabidopsis thaliana | root length | Col-0, seedlings | 25 µg/mL |  | 16.8%

Series 3
Structure (SMILES): O=C(Nc1ccccc1)Nc1cccc(Oc2ccc3nccn3n2)c1
Observed: enzyme activity
Mode: inhibitor
Method: radiometric
target | pIC50
Tyrosine-protein kinase ABL1 (ABL1, Homo sapiens, UniProt P00519) | 5.33
Epithelial discoidin domain-containing receptor 1 (DDR1, Homo sapiens, UniProt Q08345) | > 6.40 and 6.42
Vascular endothelial growth factor receptor 3 (FLT4, Homo sapiens, UniProt P35916) | 6.80
Platelet-derived growth factor receptor beta (PDGFRB, Homo sapiens, UniProt P09619) | 5.92
Macrophage colony-stimulating factor 1 receptor (CSF1R, Homo sapiens, UniProt P07333) | 6.64

Other studies, line by line
Compound | tested on | test | system | conditions | endpoint | result
Cc1ccc(O)c(C)c1-c1cnc2[nH]c(-c3cnc(N4CCC(CN5CCN(c6c(F)cc(NC7CCC(=O)NC7=O)cc6F)CC5)CC4)nc3)cc2c1C#N (racemic) | Membrane-associated tyrosine- and threonine-specific cdc2-inhibitory kinase (PKMYT1, Homo sapiens, UniProt Q99640) | binding, HTRF |  |  | pIC50 | 7.84
Cc1ncc(-c2cc3c(C#N)c(-c4c(C)ccc(O)c4C)cnc3[nH]2)cn1 | Caco-2 | permeability |  | 2 µM, 2 h, pH 7.4 | recovery | 48.1%
Cc1ccc(O)c(C)c1-c1cnc2[nH]c(-c3cnc(N4CCC5(CC4)CC(N4CCN(c6ccc(N[C@H]7CCC(=O)NC7=O)cc6F)CC4)CO5)nc3)cc2c1C#N (single isomer, unassigned) | Protein cereblon (CRBN, Homo sapiens, UniProt Q96SW2) |  |  | 3333.33 nM | binding | 29.4% and 18.2%
Cc1ccc(O)c(C)c1-c1cnc2[nH]c(-c3cnc(N)nc3)cc2c1C#N |  |  | Sprague-Dawley rat, male, plasma | oral, dose not given | oral bioavailability | 51.9%
